# Experimental data pooled from the literature.
# Each numbered part is a random draw from the data of one study; scales do not carry over between parts.

# Block 1 — method: protein binding microarray; form: double-stranded DNA, one strand shown; medium: in vitro; tested at: not given; baseline: not given; reading: higher = stronger binding
# Target: Histone acetyltransferase KAT6A, winged helix 2, GST fusion (KAT6A, Homo sapiens, UniProt Q92794, residues 85-181)
# Setting: 8-mer, flanks averaged, mean of 2 arrays, mostly near background
# Construct (chain): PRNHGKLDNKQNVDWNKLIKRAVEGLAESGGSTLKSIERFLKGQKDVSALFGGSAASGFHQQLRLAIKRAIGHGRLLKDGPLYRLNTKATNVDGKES
Oligonucleotide,E-score
ACGAACCG,-0.0159
ACGACTTA,-0.222
GGCACATA,0.103
CCTTGCAC,-0.0614
GCGGGGGA,0.101
CTCTCATA,-0.0794
AATCTGCC,-0.0279
AGCTGAAT,0.0245
CACCGGTC,-0.0549
CCGTGATC,0.0596
ACCTCCGA,-0.00155
CACTGCAA,0.106
CCTTATTA,-0.18
GGACGAAC,0.177
AGCCCACA,0.0766
GACTGAGA,-0.0917
CCAAGCAC,-0.00717
AGAGATAC,-0.022
AGATGTAA,0.0209
ATCAAGTA,-0.0627
ACAGAGAC,0.01
ACGTTGTA,-0.163
GCCCGACA,0.152
GACAGACA,0.0646
ACCCTCCG,0.0651

# Block 2 — method: RNA Bind-n-Seq; form: RNA; medium: in vitro; tested at: 200 nM; setting: whole 134-nt RNA, ends assumed; added: 150 mM LiCl; baseline: input library; reading: higher = stronger binding; library: 7-deaza-guanosine replaces G
# Target: Ras GTPase-activating protein-binding protein 1, full length (G3BP1, Homo sapiens, UniProt Q13283)
# Chain of UniProt Q13283 (whole entry, looked up): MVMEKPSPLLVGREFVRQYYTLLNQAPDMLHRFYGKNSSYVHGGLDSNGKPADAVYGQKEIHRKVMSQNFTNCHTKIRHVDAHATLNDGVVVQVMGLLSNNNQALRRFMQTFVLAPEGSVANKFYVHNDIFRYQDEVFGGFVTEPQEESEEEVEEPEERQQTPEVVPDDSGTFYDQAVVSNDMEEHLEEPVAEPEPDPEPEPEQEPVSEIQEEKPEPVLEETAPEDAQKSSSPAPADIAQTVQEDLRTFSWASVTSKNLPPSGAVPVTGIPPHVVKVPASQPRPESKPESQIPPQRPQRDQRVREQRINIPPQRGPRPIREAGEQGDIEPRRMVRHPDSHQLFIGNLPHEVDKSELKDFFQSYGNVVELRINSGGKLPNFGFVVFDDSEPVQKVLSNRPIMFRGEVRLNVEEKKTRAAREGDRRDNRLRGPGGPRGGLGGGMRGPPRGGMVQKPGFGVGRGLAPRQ
Oligonucleotide,log2 enrichment
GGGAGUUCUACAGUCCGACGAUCUCCUGUGCUACACAUCGUAUGUACCGAAUCGGGUUUUUUGGGUUUUUUGGGUUUUUUGGGAAAGUAUUAUGUUACGCCGUUCGGAUCUGCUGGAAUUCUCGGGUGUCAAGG,0.26
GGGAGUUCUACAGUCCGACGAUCCCUCAAGUCCUGUGCUACACAUCGUAUGUACCGAAUCGGGUGGGUGGGGUGGGAAAGUAUUAUGUUACGCCGUUCGGAUCUGCACUUCCAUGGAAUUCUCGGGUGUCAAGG,-0.733
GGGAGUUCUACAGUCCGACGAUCUGGGAGGUGGAUUUUGUUCAUUUUUUUAGCUCAUUUCCAGGGGUGGGAAUUUUUUUUUAAUAUGUGUCAUGAAUAAAGUUGUUUUUGAAAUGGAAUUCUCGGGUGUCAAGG,0.108
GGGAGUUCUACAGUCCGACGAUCGCAGGAAGUAAAAACAAAUGGAAAUGCUUCGGUUAGUGGCAGGGGUGGGGGUUGCUAAGGAAAGGGUGGGAUGGGAGUGGGUAAAGAGUUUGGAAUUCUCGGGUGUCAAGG,-0.0276
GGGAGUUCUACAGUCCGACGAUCUCCUGUGCUACACAUCGUAUGUACCGAAUCGGGCCCCCGGGGCCCCCGGGGCCCCCGGGGAAAGUAUUAUGUUACGCCGUUCGGAUCUGCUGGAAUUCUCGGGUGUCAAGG,-1.4
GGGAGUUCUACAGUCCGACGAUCACCAUGCAGGUGGGCAUCUUUGGGAAGUGGGGCAAAAGGGGGAUAGGGAGGGGGGUAACACUUUGGGAACAGGUGGUCCCAGGUCGUUUCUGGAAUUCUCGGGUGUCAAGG,0.489
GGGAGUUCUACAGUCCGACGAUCUAUGGACAAGCAUAAUGGAACAGACAGGUUUGUGAACCAGCAGUUUCAAGAGGAAAAGUUAAAUAAAUUGCAGAAGUUACUUAUUCUUUUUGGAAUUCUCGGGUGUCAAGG,-2.85
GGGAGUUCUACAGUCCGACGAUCUCCUGUGCUACACAUCGUAUGUACCGAAUCGGGGAAAAAAAGGGGUUUGGGGAAAGGGGAAAGUAUUAUGUUACGCCGUUCGGAUCUGCAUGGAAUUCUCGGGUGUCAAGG,-0.786

# Block 3 — method: protein-binding microarray; form: double-stranded DNA, one strand shown; medium: in vitro; tested at: 2200 nM top; setting: 60-bp whole probe; added: salmon DNA 0.4 mg/ml; baseline: random background probes; reading: higher = stronger binding; constant ends, left off below: GCCTAGCAC … GTCTTGATTCGCTTGACGCTGCTG
# Target: Interferon regulatory factor 7, full length, phosphomimetic (IRF7, Homo sapiens, UniProt Q92985, residues 1-503, S471D/S472D/S475D/S476D/S477D/S483D/S484D/S487D)
# Residues (chain): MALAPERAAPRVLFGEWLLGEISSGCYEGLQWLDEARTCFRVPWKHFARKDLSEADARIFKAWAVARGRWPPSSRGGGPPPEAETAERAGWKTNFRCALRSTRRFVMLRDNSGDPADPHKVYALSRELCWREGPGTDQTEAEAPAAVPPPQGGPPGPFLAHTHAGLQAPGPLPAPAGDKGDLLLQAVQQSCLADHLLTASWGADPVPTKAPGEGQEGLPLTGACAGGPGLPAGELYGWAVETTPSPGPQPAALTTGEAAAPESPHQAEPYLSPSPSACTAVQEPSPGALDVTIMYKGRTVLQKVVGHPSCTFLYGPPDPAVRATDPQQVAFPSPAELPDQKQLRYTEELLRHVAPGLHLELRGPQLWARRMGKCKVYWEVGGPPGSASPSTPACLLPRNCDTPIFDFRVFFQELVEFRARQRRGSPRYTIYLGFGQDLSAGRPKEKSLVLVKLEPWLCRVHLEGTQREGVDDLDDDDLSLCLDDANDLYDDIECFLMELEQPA
Oligonucleotide,fitted relative affinity
GAAGGTATCGACTATCGGGACGTGCTA,-0.21 z-score
TTAGGTTTCGACCATCGGTTAGTGCTA,1.93 z-score
ATTTTTTTCTAAGTAAACCCGTGCTAG,0.399 z-score
TTAGGTTTCGGGACTGGGTCAGTGCTA,3.31 z-score
GACGGTCTCGGCTTCGGGACGTGCTAG,-0.271 z-score
GACGGTTTCGACTATCGTGACGTGCTA,3.26 z-score
TCGCCTTTTTTGTTGTTTTTGTGCTAG,2.59 z-score
GACGGTATCGACTATCGTGACGTGCTA,0.1 z-score
TTAGAGCTCAGACTGGATTAGTGCTAG,-0.599 z-score
GACGATTTTGGGTTTCGAGACGTGCTA,2.79 z-score
TCCTATATCTGAACCGCAGAGTGCTAG,0.965 z-score
TTAGAACGGGGGACTGGATTAGTGCTA,0.746 z-score
TTCATTTTGTTCATCATTGCGTGCTAG,1.79 z-score
GACGAATCCAGTTTCGAGACGTGCTAG,3.59 z-score
GACGGTTTCCTATTGCTGACGTGCTAG,3.44 z-score
TTAGGTTTCGGTTACGGTTAGTGCTAG,7.16 z-score
GACGGAATCCTTTTCCTGACGTGCTAG,0.912 z-score
TCAGTTCTTAGCTTGGGACTGTGCTAG,0.869 z-score
GACGATTTCGGTCTCGAGACGTGCTAG,3.1 z-score

# Block 4 — method: RNA Bind-n-Seq; form: RNA; medium: in vitro; tested at: 365 nM; baseline: no-protein control; reading: higher = stronger binding
# Target: RNA binding protein fox-1 homolog 2, RRM domain, GST-SBP tag (RBFOX2, Homo sapiens, UniProt O43251-10, residues 100-194)
# Setting: natural RNA segment, single round, ends assumed
# Construct (chain): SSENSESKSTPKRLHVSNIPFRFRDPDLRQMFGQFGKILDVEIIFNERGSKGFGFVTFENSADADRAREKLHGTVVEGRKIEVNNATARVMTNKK
Oligonucleotide,RBNS enrichment (R)
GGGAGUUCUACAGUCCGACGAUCUCUGGCGGGCUGUCCUCCUUGGUGGGAGCUGUCCUGCACACUGUAGGAUGCUUAAAGGUAUCCCUGGCCUCCACCCACCCCUAGCCAGCAGCUCCCAGUCAGACAACAGCUGGAAUUCUCGGGUGCCAA,0.246
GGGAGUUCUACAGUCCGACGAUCGGGCGGGAGUUCCUACCCCAUCUCUGCUUCCCCUGGAGGCCGGCCAGCGUUUGUGGGUUGGUUCAGGUGUGGUACCUCCCACUCAGGAGUCAAUAUUUUCAAAUUUUUCUUGGAAUUCUCGGGUGCCAA,0.44
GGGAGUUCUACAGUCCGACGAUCGACACCUUAGCUUCUUAUGAGGAACUUGAGUUCCCUCCGCCUUGGACAGGGCUGCAGGGCCACGCUGGUGGGAAAGACAAGAGCUGUGAAGGGCCUGGUCCCUCUCUAGAUGGAAUUCUCGGGUGCCAA,0.557
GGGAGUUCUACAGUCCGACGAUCACCUAGCUCCUGCCGCAUGUGGCUUCAGCCUGGCCUGGCCGCCAGGGGGAGCCACUGGUUUCGCUCCUCCUGAAGGGAGCUCUGGACCCUCAGGGCCCCCACAGGGGAAGUGGAAUUCUCGGGUGCCAA,0.306
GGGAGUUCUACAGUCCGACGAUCAGAUCAAAAUUUUACACUAGCUUAUUAGAGCCCUAUUAGUUCCUGUCCCAAGUUCUUCAGUUACAACCUAGUAGUAUACUUACUCUUCCAACUGUCCUAAGGUCACUUCCUGGAAUUCUCGGGUGCCAA,0.598
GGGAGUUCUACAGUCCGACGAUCGAGAGACUGCCAUACAUAAUAUAUGACUUCCUAGGGAUCUGAAAUCCAUAAACUAAGAGAAACUGUGUAUAGCUUACCUGAACAGGAAUCCUUACUGAUAUUUAUAGAACUGGAAUUCUCGGGUGCCAA,0.303
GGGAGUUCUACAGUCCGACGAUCUUUAAUGGCAGUCACAACUCUGAAACCUUUUGUUCGUGCCGGCUUCAGGUCAAUGUGUUUAUGUGAUAAAUGGGAGUGAUAACAGAAGCUUUAAUGGGAGAGUAAGAAAUUGGAAUUCUCGGGUGCCAA,1.4
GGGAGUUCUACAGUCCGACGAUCAGAGGCCAGCCUCAAGGUGGCCAUGUCGAGGUGAGGCCAGCUUGGGCUAUCCGAGACGCUGUCAGCCAUUUUGCUCUGUUCCUGGUAGUGUGCAGACCUCGGGGUUGAGAUGGAAUUCUCGGGUGCCAA,0.566

# Block 5 — method: RNA Bind-n-Seq; form: RNA; medium: in vitro; tested at: not given; baseline: input RNA pool; reading: higher = stronger binding
# Target: RING finger protein unkempt homolog, zinc fingers 1-6, GST-SBP tag (UNK, Homo sapiens, UniProt Q9C0B0, residues 30-357)
# Setting: RNA with constant flanks, human-mouse chimeric sites, ends assumed
# Construct (chain): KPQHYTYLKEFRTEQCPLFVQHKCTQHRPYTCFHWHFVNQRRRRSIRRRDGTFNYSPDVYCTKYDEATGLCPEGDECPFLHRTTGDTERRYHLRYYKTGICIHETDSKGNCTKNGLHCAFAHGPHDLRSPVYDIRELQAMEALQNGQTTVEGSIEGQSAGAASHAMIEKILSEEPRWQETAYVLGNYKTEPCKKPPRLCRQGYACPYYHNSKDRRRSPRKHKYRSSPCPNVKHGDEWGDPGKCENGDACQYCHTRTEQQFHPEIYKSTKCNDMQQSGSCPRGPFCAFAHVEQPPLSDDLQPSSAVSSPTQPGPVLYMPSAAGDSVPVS
Oligonucleotide,bound/input enrichment [ratio]
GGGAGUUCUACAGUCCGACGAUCUUGUGCAUAUGAUGCUUAGAUGGUUUUUGCAAAAGCAGAAAUCGCUGCAAGGUAAUCACAAUAGAUAAAAGUGGUAUUUUAAACCUUUGAAAUAAAUGGAUGUAACUGUACCUUGGUACACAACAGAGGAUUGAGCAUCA,0.758
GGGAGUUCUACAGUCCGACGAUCAAAGAACCUCUCUCUGAUGAAGAUGAGGAAGACAAUGAUGAUGUUGAACCCAUUUCUGAAUUUCGAUUUGUGCCCAGUGAUAAAUCAGCAUUGGAGGCGAUGUUCACAGCAAUGUGUGAGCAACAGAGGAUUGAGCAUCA,0.268
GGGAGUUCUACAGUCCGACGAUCGAUCAUGAACCACCAUCAGAAAUGAAGAUGAGAUUACCCAGACGAGCCAAAACAGCUAGCACUAGAAAAAGUAAACUUAACCUUGCACCAAUUUCUCAUGAAGAUACAAGUUAAGAGAGCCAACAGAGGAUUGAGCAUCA,1.61
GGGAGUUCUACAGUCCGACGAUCCCUGCUCAGAUCACCAUGAAAGUAAUCCAAGGCCUAUACAGUGGGGUCACCACAGUGGAACUGGACACUUUGGCUGCUGAGACAGCCGCGACCUUGACCACGAAGCACCCUGACUAUGCCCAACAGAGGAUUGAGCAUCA,0.099
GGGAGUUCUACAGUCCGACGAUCCACGUGUCUGCAGUGCUUGAUGUGGACUACUCUCCCACUGGGAAGGAAUUUGUGUCUGCCAGCUUUGAUAAGUCUAUUAGAAUCUUUCCUGUGGACAAGAGCCGAAGCAGGGAAGUGUAUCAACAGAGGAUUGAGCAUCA,0.538
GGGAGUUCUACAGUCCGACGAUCAAAGUGAUGACUAUGUUUGUCCAACGACAGGUAUUUUCGGAGAGCAAAGAUGAGAUUGCGUUAGUCCUCUAUGGCACAGAUGGCACUGACAAUCCCCUUUCUGGUGGGGACCAGUAUCAGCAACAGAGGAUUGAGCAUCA,0.353
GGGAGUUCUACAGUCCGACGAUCUAAGUCCAUUUGUAAGCAUUUAUCCCAAAAGUUUUAAAUUCUGGACCAAUAGUGUUUGUUUCCUGAUUAUUGUAUCCAAUACUUUGCCUAGUAUGUAACUCACUCUUACUGAUAAUAAAACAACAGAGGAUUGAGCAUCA,1.91
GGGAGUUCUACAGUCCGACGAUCUCUUAACUUAUUCAUUUCUUAUUUUUAUAUAGCUAGAGCAAUAUUGUUAGUCUUAGACAAUAGCUCACAUUUUUUGAGAAGCAUGCCCUCCCUGUCCAUUUGUCUUAUAACAUGACCCAGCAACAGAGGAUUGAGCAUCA,64.7

# For quick reference, copied from above (block 1):
Oligonucleotide,E-score
AGCCCACA,0.0766
GACTGAGA,-0.0917
CCAAGCAC,-0.00717
AGAGATAC,-0.022
AGATGTAA,0.0209
ATCAAGTA,-0.0627
ACAGAGAC,0.01
